Measurements of several laboratories.
Each line is one published result; not all experiments were run side by side. Values joined by “and” are separate records of one study, mostly repeats; a detail may differ. Numbers after ± are the reported error.
BCHE: Cholinesterase (BCHE, Equus caballus, UniProt P81908)
Chain of UniProt P81908 (whole entry, looked up): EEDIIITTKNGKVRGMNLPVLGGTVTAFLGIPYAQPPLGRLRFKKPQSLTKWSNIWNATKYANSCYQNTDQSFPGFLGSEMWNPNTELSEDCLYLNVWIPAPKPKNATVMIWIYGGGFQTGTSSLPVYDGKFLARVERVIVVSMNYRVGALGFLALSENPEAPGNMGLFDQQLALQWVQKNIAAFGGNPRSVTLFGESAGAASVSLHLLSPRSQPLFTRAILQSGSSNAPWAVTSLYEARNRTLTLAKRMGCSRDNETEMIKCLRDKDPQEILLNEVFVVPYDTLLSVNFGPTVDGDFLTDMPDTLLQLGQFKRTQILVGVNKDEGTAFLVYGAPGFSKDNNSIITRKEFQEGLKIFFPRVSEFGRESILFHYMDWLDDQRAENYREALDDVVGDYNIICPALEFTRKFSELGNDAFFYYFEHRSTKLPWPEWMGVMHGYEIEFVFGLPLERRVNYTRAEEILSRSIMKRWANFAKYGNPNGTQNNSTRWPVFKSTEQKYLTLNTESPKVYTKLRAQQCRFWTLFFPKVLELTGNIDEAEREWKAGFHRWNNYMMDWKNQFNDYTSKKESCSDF
Chain of UniProt P10408 (whole entry, looked up): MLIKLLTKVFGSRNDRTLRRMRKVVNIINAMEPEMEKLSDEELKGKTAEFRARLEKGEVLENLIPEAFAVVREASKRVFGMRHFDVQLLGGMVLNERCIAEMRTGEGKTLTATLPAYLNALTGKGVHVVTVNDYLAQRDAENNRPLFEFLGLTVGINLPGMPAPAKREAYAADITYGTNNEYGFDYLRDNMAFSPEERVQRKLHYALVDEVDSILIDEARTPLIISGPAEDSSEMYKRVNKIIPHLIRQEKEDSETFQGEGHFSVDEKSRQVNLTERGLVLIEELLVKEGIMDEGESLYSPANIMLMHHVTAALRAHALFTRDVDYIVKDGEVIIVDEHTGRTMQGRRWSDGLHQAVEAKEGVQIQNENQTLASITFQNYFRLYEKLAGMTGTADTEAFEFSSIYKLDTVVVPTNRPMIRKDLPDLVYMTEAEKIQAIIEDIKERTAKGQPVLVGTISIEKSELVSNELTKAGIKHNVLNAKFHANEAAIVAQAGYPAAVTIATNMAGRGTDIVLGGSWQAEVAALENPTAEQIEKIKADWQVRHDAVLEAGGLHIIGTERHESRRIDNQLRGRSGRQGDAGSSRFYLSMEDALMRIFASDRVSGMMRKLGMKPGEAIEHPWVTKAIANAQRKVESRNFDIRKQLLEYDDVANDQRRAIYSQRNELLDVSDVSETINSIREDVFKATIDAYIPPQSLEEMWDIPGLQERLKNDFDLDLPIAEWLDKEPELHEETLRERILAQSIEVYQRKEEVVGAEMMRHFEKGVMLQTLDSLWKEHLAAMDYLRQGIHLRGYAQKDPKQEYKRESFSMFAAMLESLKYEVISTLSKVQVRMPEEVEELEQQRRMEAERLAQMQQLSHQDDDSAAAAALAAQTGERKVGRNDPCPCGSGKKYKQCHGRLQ
Chain of UniProt P33527 (whole entry, looked up): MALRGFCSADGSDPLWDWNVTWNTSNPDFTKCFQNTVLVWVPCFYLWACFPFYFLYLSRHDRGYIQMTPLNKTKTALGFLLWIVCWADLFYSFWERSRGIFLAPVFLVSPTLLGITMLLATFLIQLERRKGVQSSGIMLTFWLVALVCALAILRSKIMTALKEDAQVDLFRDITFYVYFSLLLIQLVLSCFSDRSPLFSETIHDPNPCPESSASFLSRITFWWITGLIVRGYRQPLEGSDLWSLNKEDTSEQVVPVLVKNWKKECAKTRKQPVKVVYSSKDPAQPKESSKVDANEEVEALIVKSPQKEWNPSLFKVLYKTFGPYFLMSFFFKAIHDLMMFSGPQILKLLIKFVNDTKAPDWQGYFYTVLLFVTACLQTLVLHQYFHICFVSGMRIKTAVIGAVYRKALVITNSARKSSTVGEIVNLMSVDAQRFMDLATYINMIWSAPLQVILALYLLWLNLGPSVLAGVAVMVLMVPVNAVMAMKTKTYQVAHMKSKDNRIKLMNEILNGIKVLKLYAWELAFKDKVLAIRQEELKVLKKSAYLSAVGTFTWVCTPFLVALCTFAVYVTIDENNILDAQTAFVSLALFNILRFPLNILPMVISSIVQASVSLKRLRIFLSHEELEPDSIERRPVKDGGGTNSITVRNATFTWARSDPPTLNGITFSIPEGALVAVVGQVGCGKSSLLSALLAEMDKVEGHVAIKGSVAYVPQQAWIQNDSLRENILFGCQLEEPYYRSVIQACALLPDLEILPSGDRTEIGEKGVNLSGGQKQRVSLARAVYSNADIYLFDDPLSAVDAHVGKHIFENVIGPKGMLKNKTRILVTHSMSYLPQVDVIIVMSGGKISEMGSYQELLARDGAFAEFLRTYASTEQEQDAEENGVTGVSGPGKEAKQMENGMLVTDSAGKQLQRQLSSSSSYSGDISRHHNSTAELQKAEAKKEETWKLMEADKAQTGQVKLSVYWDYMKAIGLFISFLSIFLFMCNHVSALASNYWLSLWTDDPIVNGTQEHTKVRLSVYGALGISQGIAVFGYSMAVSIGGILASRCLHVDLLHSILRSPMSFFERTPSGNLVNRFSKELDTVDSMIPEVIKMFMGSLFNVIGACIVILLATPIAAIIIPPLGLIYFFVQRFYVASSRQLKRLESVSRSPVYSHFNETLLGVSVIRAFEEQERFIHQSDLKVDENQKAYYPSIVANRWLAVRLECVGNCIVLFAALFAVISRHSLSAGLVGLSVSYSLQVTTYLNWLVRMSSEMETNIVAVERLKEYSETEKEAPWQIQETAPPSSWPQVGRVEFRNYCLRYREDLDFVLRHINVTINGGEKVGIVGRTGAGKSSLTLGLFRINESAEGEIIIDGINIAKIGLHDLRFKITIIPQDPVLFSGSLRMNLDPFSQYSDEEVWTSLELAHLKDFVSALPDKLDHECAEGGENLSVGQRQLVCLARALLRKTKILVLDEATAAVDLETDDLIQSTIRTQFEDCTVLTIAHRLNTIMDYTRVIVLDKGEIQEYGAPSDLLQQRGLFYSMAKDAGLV
Chain of UniProt P39135 (whole entry, looked up): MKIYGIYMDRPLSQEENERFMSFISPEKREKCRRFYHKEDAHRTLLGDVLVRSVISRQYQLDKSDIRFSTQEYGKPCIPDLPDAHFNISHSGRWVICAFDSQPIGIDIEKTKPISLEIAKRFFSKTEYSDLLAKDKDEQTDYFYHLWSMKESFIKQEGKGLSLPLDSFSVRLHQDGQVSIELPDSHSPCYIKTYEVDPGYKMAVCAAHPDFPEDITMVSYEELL
Chain of UniProt O15393 (whole entry, looked up): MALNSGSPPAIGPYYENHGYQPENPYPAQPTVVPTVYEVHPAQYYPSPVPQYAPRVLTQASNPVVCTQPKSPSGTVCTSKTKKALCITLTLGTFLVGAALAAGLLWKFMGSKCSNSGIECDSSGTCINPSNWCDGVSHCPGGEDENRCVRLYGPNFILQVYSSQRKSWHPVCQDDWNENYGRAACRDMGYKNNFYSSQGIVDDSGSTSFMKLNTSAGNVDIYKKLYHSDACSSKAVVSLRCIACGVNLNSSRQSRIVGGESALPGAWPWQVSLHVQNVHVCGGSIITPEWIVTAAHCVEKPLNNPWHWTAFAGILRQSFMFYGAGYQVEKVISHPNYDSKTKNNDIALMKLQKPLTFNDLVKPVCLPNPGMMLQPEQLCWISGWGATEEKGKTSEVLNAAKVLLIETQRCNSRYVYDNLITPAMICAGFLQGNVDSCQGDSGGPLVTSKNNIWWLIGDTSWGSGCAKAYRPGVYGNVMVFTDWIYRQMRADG

Structure (SMILES) | target | test | system | setting | IC50
C[N+](C)(C)CCSS(C)(=O)=O | Guanine nucleotide-binding protein G(i) subunit alpha-3 (GNAI3, Cricetulus griseus, UniProt Q60397) | – | CHO (Y2 receptor) membranes | together with: NEM | 13.1 ± 1.29 µM
C[C@H]1C[C@H]2[C@@H]3CCC4=CC(=O)C=C[C@]4(C)[C@@]3(Cl)[C@@H](O)C[C@]2(C)[C@@]1(O)C(=O)CO | Epidermal growth factor receptor (EGFR, Homo sapiens, UniProt P00533) | kinase activity, ADP luminescence | – | together with: 200 µM ATP | > 10 µM
CCc1c(C(=O)NCCc2ccc(N3CCCCC3)cc2)[nH]c2ccc(N=C=S)cc12 | Cannabinoid receptor 1 (CNR1, Homo sapiens, UniProt P21554) | β-arrestin1 recruitment, negative allosteric modulator, BRET | Neuro2a | 30 min, together with: anandamide 500 nM | 0.0575 µM
C[C@@H]1C[C@H]2[C@@H]3CCC4=CC(=O)C=C[C@]4(C)[C@@]3(Cl)[C@@H](O)C[C@]2(C)[C@@]1(OC(=O)c1ccco1)C(=O)CCl | Multidrug resistance-associated protein 1 (ABCC1, Homo sapiens, UniProt P33527) | efflux, inhibitor, flow cytometry | SupT1 cells overexpressing ABCC1 | together with: tetramethylrosamine 500 nM | 3.6 ± 2.3 µM
O=C1NCc2c1c1c3ccccc3[nH]c1c1[nH]c3ccccc3c21 | ERRα (human) | reporter gene, antagonist, luciferase reporter qHTS | – | – | 2.66 µM
CC(C)C[C@H](NC(=O)N1CCOCC1)C(=O)N[C@H](/C=C/S(=O)(=O)c1ccccc1)CCc1ccccc1 | Papain (Carica papaya, UniProt P00784) | enzyme activity, inhibitor, fluorescence | – | pH 5.5, with preincubation | 0.011 µM
Cc1cccc(C)c1OCC(=O)N[C@@H](Cc1ccccc1)[C@@H](O)C[C@H](Cc1ccccc1)NC(=O)[C@H](C(C)C)N1CCCNC1=O | Solute carrier organic anion transporter family member 1B1 (SLCO1B1, Homo sapiens, UniProt Q9Y6L6) | transport, inhibitor | – | 10 (unit not given), pre-incubation, together with: estrone-3-sulfate | 0.6 ± 0.1 µM
CCN1C[C@H](C)n2c(c(O)c3c(=O)n(Cc4ccc(F)c(Cl)c4)nc(C(=O)NC)c32)C1=O | Gag-Pol polyprotein, integrase (gag-pol, Human immunodeficiency virus 1, UniProt P12497) | concerted integration, inhibitor, refers to: CHS products | – | 2 h, 37 °C | 0.365 ± 0.045 µM
CC1(C)C2C(=O)N(OC(=O)N3CCc4c(Br)cccc4C3)C(=O)C21 (stereo not shown) | Monoacylglycerol lipase ABHD6 (ABHD6, Homo sapiens, UniProt Q9BV23) | enzyme activity, inhibitor, fluorescence | – | – | 0.022 µM
CN1C(=O)[C@]23SS[C@@]1(C)C(=O)N2[C@H]1Nc2ccccc2[C@@]1([C@@]12c4ccccc4N[C@@H]1N1C(=O)[C@@]4(C)SS[C@]1(C(=O)N4C)[C@H]2O)[C@@H]3O | Protein arginine N-methyltransferase 3 (PRMT3, Homo sapiens, UniProt O60678) | methyltransferase activity, inhibitor | – | together with: 1 µM [3H]SAM | > 10 µM
CC(C)[C@H](NC(=O)[C@H](CCCNC(=N)N)NC(=O)N[C@@H](Cc1ccccc1)C(=O)O)C(=O)N[C@H](C=O)CCCNC(=N)N | Transmembrane protease serine 2 (TMPRSS2, Homo sapiens, UniProt O15393) | enzyme activity, inhibitor, fluorescence | – | – | 0.152 µM
NC(Cc1onc(O)c1Cl)C(=O)O (stereo not shown) | Glutamate receptor 3, S1S2 ligand-binding domain (Rattus norvegicus, UniProt P19492, del531-655/S657T/V656G) | – | – | – | 55 ± 4 µM
COCCCNc1c2c3c(cccc3[nH]c1=O)C(=O)c1ccccc1-2 | ROP18 (Toxoplasma gondii, UniProt Q2PAY2) | kinase activity, inhibitor | – | together with: peptide FL-8 | > 10 µM
CC(C)NP(=O)(NC(C)C)OP(=O)(NC(C)C)NC(C)C | Butyrylcholinesterase (Bche, Rattus norvegicus, UniProt Q9JKC1) | enzyme activity, inhibitor, radiometric | rat, aging, cortex homogenate | 15 min, 37 °C | 2 µM
O=C(NCCCCCn1ccc2ccc(F)cc21)Oc1ccccc1C(=O)O | BCHE | enzyme activity, inhibitor, HPLC | – | – | 2.3 µM
c1ccc2c(c1)-c1cccc3c1c-2cc1ccccc13 | Cytochrome P450 1B1 (CYP1B1, Homo sapiens, UniProt Q16678) | enzyme activity, inhibitor | – | 5 s, pH 7.4 | < 0.05 µM
COc1ccc(NC(=O)N2CCCN3[C@H](CO)[C@H](c4ccc(C#Cc5ccccc5)cc4)[C@@H]3C2)cc1 | Phenylalanine--tRNA ligase alpha subunit (Plasmodium falciparum, UniProt Q8I246) | aminoacylation activity, inhibitor | – | – | 0.366 µM

Structure (SMILES) | target | test | system | setting | IC50
CNCCCNC(=O)O[C@H]1CC[C@@]2(C)[C@H](CC[C@@H]3[C@@H]2CC[C@]2(C)[C@@H](c4ccc(=O)oc4)CC[C@]32O)C1 | Sodium/potassium-transporting ATPase subunit alpha-1, with beta-1 subunit (Atp1a1, Rattus norvegicus, UniProt P06685) | pump current, inhibitor, two-electrode voltage clamp | Xenopus oocytes expressing β1 | -60 mV | 0.107 µM
O=C(OC(C(F)(F)F)C(F)(F)F)N1CCN(Cc2cccc(Oc3ccccc3)c2)CC1 | Monoacylglycerol lipase ABHD6 (Abhd6, Rattus norvegicus, UniProt Q5XI64) | competitive ABPP | rat brain membrane proteome | – | 0.05 µM
N=C1Sc2ccccc2C2=NCCCN12 | sfp (Bacillus subtilis, UniProt P39135) | phosphopantetheinylation, inhibitor, fluorescence polarization | – | 45 min, pH 7.6, 10% DMSO, together with: VibB 10 µM and rhodamine-CoA 5 µM | 1 ± 1 µM
O=C1Nc2ccccc2/C1=C/c1cnc[nH]1 | Putative glycogen synthase kinase (Leishmania major, UniProt Q4QE15, D105E) | enzyme activity, inhibitor | – | 90 min, 30 °C, together with: ATP 2 µM | 18 µM
CC(C)c1ccc2c(c1)c(SC(C)(C)C)c(CC(C)(C)C(=O)O)n2Cc1ccc(Cl)cc1 | Protein adenylyltransferase VopS (vopS, Vibrio parahaemolyticus serotype O3:K6, UniProt Q87P32) | AMPylation activity, inhibitor, fluorescence polarisation | – | 3 h, together with: Cdc42 Q61L 5 µM, Fl-ATP 250 nM | 50 µM
COc1ccc(N2CCN(Cc3cc(=O)oc4c(O)c(O)ccc34)CC2)cc1 | Gag-Pol polyprotein, reverse transcriptase p66/p51 (gag-pol, Human immunodeficiency virus type 1 group M subtype B, UniProt P04585) | RNase H activity, inhibitor | p66/p51 RT heterodimer | pH 8.0, together with: 10 mM Mg2+ | 0.7 µM
O=C(C=Cc1ccc2ccccc2n1)c1cc(Cl)ccc1O | Replicase polyprotein 1ab, main protease (Feline coronavirus, UniProt Q98VG9) | enzyme activity, inhibitor, FRET | – | – | 25.9 µM
C=CCC[C@](C)(NC(=O)[C@H](CC(C)C)NC(=O)[C@H](CCCCN)NC(=O)[C@H](CC(C)C)NC(=O)[C@](C)(CCC=C)NC(=O)[C@H](Cc1ccccc1)NC(=O)[C@H](Cc1ccc(O)cc1)NC(=O)[C@H](C)NC(=O)[C@@H](N)[C@@H](C)O)C(=O)NCC(=O)N[C@@H](CCCNC(=N)N)C(=O)N[C@@H](Cc1c[nH]c2ccccc12)C(N)=O | PC4 and SFRS1-interacting protein, with HIV integrase (Homo sapiens, UniProt O75475) | LEDGF/p75-integrase interaction, inhibitor | – | – | 20 µM
C[C@@H]1NC(=O)[C@@H]2CSSC[C@H](NC(=O)[C@H](CC(=O)O)NC(=O)[C@H](CC(=O)O)NC(=O)CNC(=O)[C@H](CC(=O)O)NC(=O)[C@H](Cc3ccc(O)cc3)NC1=O)C(=O)N[C@@H](CCCCN)C(=O)N[C@@H](CO)C(=O)N[C@@H](C)C(=O)N1CCC[C@H]1C(=O)N1CCC[C@H]1C(=O)N[C@@H](CO)C(=O)N2 | Lymphocyte function-associated antigen 3 (CD58, Homo sapiens, UniProt P19256) | – | – | – | 0.023 ± 0.046 µM
O=C1Nc2ccc(S(=O)(=O)O)cc2C1=C1Nc2ccccc2C1=NO | GSK3, short isoform (Trypanosoma brucei, UniProt Q388M1) | enzyme activity, inhibitor | – | 90 min, 30 °C, together with: ATP 2 µM | 0.48 µM
CC1=C(C(=O)NC(=O)c2cnccn2)C(c2ccc(F)cc2)NC(=S)N1 (stereo not shown) | BCHE | – | – | – | 3.93 ± 0.01 µM
O=C(NCCCCCn1ccc2ccc(F)cc21)Oc1ccc(F)cc1 | BCHE | enzyme activity, inhibitor, HPLC | – | – | 7.1 µM
O=C(COc1ccc(I)cc1)N[C@H]1CCOC1=O | HTH-type quorum-sensing regulator RhlR (rhlR, Pseudomonas aeruginosa, UniProt P54292) | reporter gene, antagonist | PAO-JP2 prhlI-LVAgfp | together with: 30 µM BHL and 100 nM OdDHL | 67.2 µM
Clc1ccc(C(c2ccccc2Cl)C(Cl)(Cl)Cl)cc1 (stereo not shown) | Voltage-gated inwardly rectifying potassium channel KCNH2 (KCNH2, Homo sapiens, UniProt Q12809) | thallium influx, inhibitor, primary qHTS | hERG-transduced cells | two runs | 17 ± 11 µM
CSc1nc(Cl)cc(Sc2nnc(-c3cc(C(F)(F)F)cc(C(F)(F)F)c3)[nH]2)n1 | Protein translocase subunit SecA (secA, Escherichia coli, UniProt P10408) | protein translocation, inhibitor | 773 inverted membranes | together with: proOmpA | 1.5 to 2 µM and 1.5 µM
CC(C)(NS(=O)(=O)c1ccc(Oc2ccc(F)cc2)cc1)C(=O)NO | ERRα (human) | reporter gene, antagonist, luciferase reporter qHTS | – | – | 2.66 µM
O=C(O[C@@H]1Cc2c(O)cc(O)cc2O[C@@H]1c1ccc(O)c(O)c1)c1cc(O)c(O)c(O)c1 | mRNA triphosphatase Cet1 (Trypanosoma brucei brucei, UniProt Q582T2) | enzyme activity, Transcreener ADP fluorescence polarization | – | 3 h, together with: 50 µM ATP | 0.64 µM

Some of these lines once more:
Structure (SMILES) | target | test | system | setting | IC50
O=C(COc1ccc(I)cc1)N[C@H]1CCOC1=O | HTH-type quorum-sensing regulator RhlR (rhlR, Pseudomonas aeruginosa, UniProt P54292) | reporter gene, antagonist | PAO-JP2 prhlI-LVAgfp | together with: 30 µM BHL and 100 nM OdDHL | 67.2 µM
C[C@@H]1C[C@H]2[C@@H]3CCC4=CC(=O)C=C[C@]4(C)[C@@]3(Cl)[C@@H](O)C[C@]2(C)[C@@]1(OC(=O)c1ccco1)C(=O)CCl | Multidrug resistance-associated protein 1 (ABCC1, Homo sapiens, UniProt P33527) | efflux, inhibitor, flow cytometry | SupT1 cells overexpressing ABCC1 | together with: tetramethylrosamine 500 nM | 3.6 ± 2.3 µM
